# Measured values from different studies.
# Each line is one published result; not all experiments were run side by side. ± gives the spread as reported.
SMILES,cell line,test,system,setting,how to read,endpoint,value
CC(C)c1ccc(S(=O)(=O)N2CC2C(=O)N(C)C)cc1 (centres unmarked),Balb/c 3T3 fibroblasts,"cytotoxicity, neutral red uptake",DMEM with 5% FBS,24 h,,IC50,12 ± 2 µM
CC(C)(CO)NCC1=C(O)C(=O)c2ccccc2C1=O,BGM cells,MTT,,concentration not given,,cytotoxicity,toxic
CC(=O)N[C@H](C(=O)NCCCCCC(=O)NCC(=O)N[C@@H](Cc1c[nH]cn1)C(=O)N[C@@H](Cc1c[nH]cn1)C(=O)N1CCC[C@H]1C(=O)N[C@@H](Cc1c[nH]cn1)C(=O)NCC(=O)N[C@@H](Cc1c[nH]cn1)C(=O)N[C@@H](Cc1c[nH]cn1)C(=O)N1CCC[C@H]1C(=O)N[C@@H](Cc1c[nH]cn1)C(N)=O)C(C)(C)SSCCNC(=O)[C@H](Cc1c[nH]c2ccccc12)NC(=O)[C@H](CCCNC(=N)N)NC(=O)[C@H](Cc1c[nH]c2ccccc12)NC(=O)[C@H](CCCNC(=N)N)NC(=O)[C@H](Cc1c[nH]c2ccccc12)NC(=O)[C@@H](N)CCCNC(=N)N,"DU-145, DTNB-pretreated",MTT,,"concentration not given, 24 h, Zn2+-activated",,cytotoxicity,inactive
CC[C@H](C)[C@H](NC(=O)[C@H](CO)NC(=O)[C@H](CO)NC(=O)[C@H](CC(C)C)NC(=O)[C@H](CCCCN)NC(=O)[C@H](CCCNC(=N)N)NC(=O)[C@H](CCCNC(=N)N)NC(=O)[C@H](CCCNC(=N)N)NC(=O)[C@H](CCC(N)=O)NC(=O)[C@H](CCCNC(=N)N)NC(=O)[C@H](CCCNC(=N)N)NC(=O)[C@H](CCCCN)NC(=O)[C@H](CCCCN)NC(=O)[C@H](CCCNC(=N)N)NC(=O)CNC(=O)[C@H](Cc1ccc(O)cc1)NC(=O)c1ccc2c(c1)C(=O)OC21c2ccc(N(C)C)cc2Oc2cc(N(C)C)ccc21)C(=O)N[C@@H](CCC(=O)O)C(=O)N[C@@H](C)C(=O)N[C@@H](CC(=O)O)C(=O)N[C@@H](C)C(=O)O,mouse primary neurons,confocal microscopy,,"1, 5 and 10 µM, 60 min, 37 °C",,cellular uptake,increased
COc1ccc2c(=O)c(OC)c(-c3ccc(OC)c(OC)c3)oc2c1,differentiated SH-SY5Y,MTT,,0.1 µM,relative to: control,viability,103 ± 4%
Cc1cccc(F)c1NC(=O)CN1CCCC2=CC3CC(CN4CCCCC34)C21 (centres unmarked),Huh-7,cytotoxicity,,,,CC50,> 267 µM
CCCCn1cc(C(=O)O)c(=O)c2cc(F)c3c(nnn3-c3cccc(Cl)c3)c21,PANC-1,"cell growth, SRB",,72 h,,IC50,23.1 ± 3.55 µg/mL
COc1cc2c(=O)cc(-c3ccccc3)oc2c2c1OC(C)(C)C=C2,differentiated SH-SY5Y,MTT,,1 µM,relative to: control,viability,99.1 ± 3.2%
CCCCn1cc(C(=O)O)c(=O)c2cc(F)c(Nc3ccccc3Cl)c(N)c21,T47D,"cell growth, SRB",,72 h,,IC50,4.4 ± 0.9 µg/mL
NC(=O)c1ccc(C(=O)NOCc2ccc(Sc3cccc(Cl)c3)c(C(F)(F)F)c2)cc1,Panc02 cells (mouse),CCK-8,,100 µM,,cytotoxicity,not toxic
CC(C)(O)c1cc2c(ccc3c(=O)cc(-c4ccccc4)oc32)o1,differentiated SH-SY5Y,MTT,,1 µM,relative to: control,viability,98.9 ± 4.9%
CC(=O)N(O)CCCP(=O)(O)O,mouse lymphoma L5178Y TK+/- 3.7.2C,TK locus mutation,,"125 µg/mL, 4 h, without S9",relative to: negative control,mean mutant frequency,130%
CC1(C)C=Cc2c(cc3oc(-c4ccccc4)cc(=O)c3c2O)O1,differentiated SH-SY5Y,MTT,,0.1 µM,relative to: control,viability,103 ± 3.6%
"COc1cc(C2C3C4=[N+](CCc5cc(O)c(OC)cc54)C(c4c3ccc(OC)c4OC)C2C(=O)[O-])ccc1O (single isomer, unassigned; (+))",HEK293T-ACE2,,,,,maximum nontoxic concentration,100 µM
